# Measurements from different studies.
# Numbered parts are unrelated; each lists some results of a single study.

# Sample 1
# Target: Interferon regulatory factor 7, full length, phosphomimetic (IRF7, Homo sapiens, UniProt Q92985, residues 1-503, S471D/S472D/S475D/S476D/S477D/S483D/S484D/S487D)
# Method: protein-binding microarray
# Form: double-stranded DNA, one strand shown
# Medium: in vitro
# Concentration: 2200 nM top
# Setting: 60-bp whole probe
# With: salmon DNA 0.4 mg/ml
# Reference: random background probes
# Reading: higher = stronger binding
# Constant ends, left off below: GCCTAGCAC … GTCTTGATTCGCTTGACGCTGCTG
# Construct (chain): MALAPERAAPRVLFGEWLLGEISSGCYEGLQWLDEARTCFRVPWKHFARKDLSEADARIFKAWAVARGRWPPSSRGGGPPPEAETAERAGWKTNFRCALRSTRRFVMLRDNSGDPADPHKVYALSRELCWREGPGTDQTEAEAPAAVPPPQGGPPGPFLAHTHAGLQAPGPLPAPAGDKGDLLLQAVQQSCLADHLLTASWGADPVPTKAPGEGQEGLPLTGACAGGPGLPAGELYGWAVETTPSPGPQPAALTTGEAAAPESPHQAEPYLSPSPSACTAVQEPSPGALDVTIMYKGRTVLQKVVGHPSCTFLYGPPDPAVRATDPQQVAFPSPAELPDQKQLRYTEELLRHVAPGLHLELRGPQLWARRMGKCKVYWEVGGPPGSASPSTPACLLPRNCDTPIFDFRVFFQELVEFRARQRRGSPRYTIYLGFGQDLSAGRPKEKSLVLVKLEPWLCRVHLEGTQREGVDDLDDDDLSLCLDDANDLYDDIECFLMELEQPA
Oligonucleotide,fitted relative affinity [z-score]
TCACCTCTGTTTTGAGCACTGTGCTAG,1.78
TTAGGTTTCGGGTTTAGGTTAGTGCTA,7.66
TCTTGTCTGGAGTCTCTGTTCGTGCTA,1.26
AAATTTTGATGAACTTAAGCGTGCTAG,-0.728
GACGGTATCGGTCTCCGGACGTGCTAG,0.385

# Sample 2
# Target: Centromere-binding protein 1, full length, His-tagged (CBF1, Saccharomyces cerevisiae, UniProt P17106, residues 1-351)
# Chain of UniProt P17106 (whole entry, looked up): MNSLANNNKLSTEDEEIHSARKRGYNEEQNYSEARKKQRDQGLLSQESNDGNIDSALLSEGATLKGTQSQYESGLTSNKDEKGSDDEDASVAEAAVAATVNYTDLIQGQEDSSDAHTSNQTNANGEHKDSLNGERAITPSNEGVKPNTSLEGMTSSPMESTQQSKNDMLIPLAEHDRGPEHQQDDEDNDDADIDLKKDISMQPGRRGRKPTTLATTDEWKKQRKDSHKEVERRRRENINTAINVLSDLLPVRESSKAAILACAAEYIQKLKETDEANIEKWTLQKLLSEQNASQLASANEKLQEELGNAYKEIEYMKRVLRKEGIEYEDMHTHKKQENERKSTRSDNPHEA
# Method: competition protein-binding microarray
# Form: double-stranded DNA, one strand shown
# Medium: in vitro
# Concentration: 2 µM
# Setting: whole 60-bp probe, lowest competitor level
# With: Pho4 competitor, 0.05 µM
# Reading: higher = stronger binding
Oligonucleotide,fluorescence intensity [a.u.]
AGTTTCAATATCTGTCCCGTGGAAGTTATATTCGCTGTCTTGATTCGCTTGACGCTGCTG,206
GCGAATAATATGTTTTGCGTGGGTATCCCAGGAGCGGTCTTGATTCGCTTGACGCTGCTG,70.8
AGCGTTCAATGGCGTCATGCGGCGTTGCGAAATTTCGTCTTGATTCGCTTGACGCTGCTG,83.8
AGGATCTAATTCGTCTACGTGGCAAAGGTTTTCAAAGTCTTGATTCGCTTGACGCTGCTG,84.9

# Sample 3
# Target: Histone acetyltransferase KAT6A, winged helix 1, GST fusion (KAT6A, Homo sapiens, UniProt Q92794, residues 1-85)
# Method: protein binding microarray
# Form: double-stranded DNA, one strand shown
# Medium: in vitro
# Concentration: not given
# Setting: 8-mer, flanks averaged, mean of 2 arrays, mostly near background
# Reference: not given
# Reading: higher = stronger binding
# Target sequence (chain): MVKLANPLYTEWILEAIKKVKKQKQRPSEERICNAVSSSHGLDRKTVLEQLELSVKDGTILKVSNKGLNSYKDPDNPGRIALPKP
Oligonucleotide,E-score
AAGACTAT,-0.134
CAGTCTCG,-0.177
ACCTAGTC,-0.0756
CACCTCCA,-0.191
GTCACACA,-0.139
AAGAGCTT,-0.16
AGCTGGCC,0.11

# Mixed results
Substance,target,assay,system,setting,how to read,measurement,value
"PhoQ, residues 284 288 289 292 302 303 SCCLKL","PhoP, residues 12 14 15 18 19 VQGLL (Escherichia coli, UniProt P23836)","Sort-seq, refers to: YFP reporter",E. coli,"PhoQ-PhoP variant library, with: 10 µM Mg2+","reference: high Mg2+ state, higher = stronger signaling",fold induction,3.74

# Repeated from above (sample 2):
Oligonucleotide,fluorescence intensity [a.u.]
AGTTTCAATATCTGTCCCGTGGAAGTTATATTCGCTGTCTTGATTCGCTTGACGCTGCTG,206
GCGAATAATATGTTTTGCGTGGGTATCCCAGGAGCGGTCTTGATTCGCTTGACGCTGCTG,70.8
